Measured values from different studies.
Each line is one published result; not all experiments were run side by side. “And” joins repeats or separate records; there may be more than shown.
Target: Casein kinase I isoform gamma-3 (CSNK1G3, Homo sapiens, UniProt Q9Y6M4)

Cc1cccc(O[C@H]2CCC[C@@H](C(C)CNCc3ccncc3)C2)c1 (relative stereo) gave an inhibition of -3% (kinase activity, kinome panel screening; 10 µM).
The inhibition of COc1ccc(O)cc1-c1c[nH]c2ncc(-c3cncc(C(=O)N(C)C)c3)cc12 is reported as 15.1% (binding, competition with immobilised ligand; 0.2 µM).
O=C=[N][Ru-4]123([n]4c5ccc(O)cc5c5c6c(c7cc(F)c[n+]1c7c54)C(=O)NC6=O)[S+]1CC[S+]2CC[S+]3CC1 (stereo not shown) gave a remaining activity of 28% (enzyme activity; 100 nM, human enzyme, with: 10 µM ATP; baseline: untreated).
NC(=O)[C@@H](O)C[C@H]1CCc2sc3ncnc(O[C@H]4CC[C@H](N5CCOCC5)CC4)c3c21 gave an inhibition of 8% (enzyme activity, inhibitor; 10 µM).
The remaining binding of CC(C)=CC1OC(C)(C)C2C=C3C(=O)C(Cl)=CC(O)C3C3C(O)C4OC4C(=O)C132 (stereo not shown) is reported as 95% (cell-free assay, competition with immobilised ligand; 10 µM).
COc1c(Cl)cccc1Nc1c(-c2ccncc2C#C[C@@]2(C)CCCN2C(=O)/C=C/CN(C)C)[nH]c2c1C(=O)NCC2 has a remaining binding of 97% (cell-free assay, competition with immobilised ligand; 3 µM).
For CNC(=O)C[C@H](Cc1ccc(C#N)cc1)NC(=O)c1cc(-c2ccc(CN[C@H](C)c3ccc(C)cc3)o2)ccc1Cl, “activity vs control” read 94% (enzyme activity, inhibitor; 1 µM).
Nc1ncc2c(n1)-c1c([nH]c3ccc(C4=CCOCC4)cc13)CCC2 gave a remaining binding of 93% (binding, competition with immobilised ligand; 1 µM).
For C=CC(=O)Nc1cccc(-c2cnc3[nH]cc(C(=O)NC(C)(C)C)c3n2)c1, the inhibition was 5% (enzyme activity, inhibitor; 0.1 µM).
C=CC(=O)N1CCCC(n2c(=O)c3ncccc3n(Cc3ccc(Oc4ccccc4)cc3)c2=O)C1 (stereo not shown) has a remaining binding of 100% (cell-free assay, competition with immobilised ligand; 1 µM).
For COCC12C(=O)NC3C4(C(OC)CC1O)C1CC5(O)C(OC)C(O)C(OC(C)=O)(C1C5OC(=O)c1ccccc1)C3(O)C(OC)C24 (stereo not shown), the remaining activity was 92% and 94% (kinase activity, inhibitor, ProQinase kinase profiling; 25 µM; baseline: control).
Cc1nc2c(F)cc(-c3nc(Nc4ccc(CNC(=O)CCCCCCC(=O)NO)cc4)ncc3F)cc2n1C(C)C gave an inhibition of 33% (enzyme activity, inhibitor; 1 µM).
C=CC(=O)N1Cc2nc(-c3cc(-c4cc(Cl)cnc4Cl)c(F)cc3F)n(-c3ccncn3)c2C1 gave an inhibition of 3.8% (cell-free assay, inhibitor; 1 µM).
With Cc1cnc2nc1Nc1cccc(c1)COC/C=C/COCc1cc(ccc1OCCN1CCOCC1)N2 the remaining signal was 97% (cell-free assay; 0.1 µM).
With Cc1ccc(-c2c(/C=C(\C#N)C(=O)NC(C)C)n(CCCO)c3ncnc(N)c23)cc1 the remaining binding was 100% (cell-free assay, competition with immobilised ligand; 1 µM).
COc1cc(-n2cc3cc(F)cc(C(N)=O)c3n2)cc(Cl)c1C1CC(O)(CCO)Cc2ccccc21 (stereo not shown) has an inhibition of 1.34% (enzyme activity, inhibitor; 10 µM).

For quick reference, copied from above:
For CNC(=O)C[C@H](Cc1ccc(C#N)cc1)NC(=O)c1cc(-c2ccc(CN[C@H](C)c3ccc(C)cc3)o2)ccc1Cl, “activity vs control” read 94% (enzyme activity, inhibitor; 1 µM).
